Published values collected from several papers.
Lines come from different studies, so protocols differ. Several values in a cell are separate wells, animals, samples, runs or records. Numbers after ± are the reported error.
USP3 ZnF-UBD domain: Ubiquitin carboxyl-terminal hydrolase 3, ZnF-UBD domain (USP3, Homo sapiens, UniProt Q9Y6I4)
Chain of UniProt Q9Y6I4 (whole entry, looked up): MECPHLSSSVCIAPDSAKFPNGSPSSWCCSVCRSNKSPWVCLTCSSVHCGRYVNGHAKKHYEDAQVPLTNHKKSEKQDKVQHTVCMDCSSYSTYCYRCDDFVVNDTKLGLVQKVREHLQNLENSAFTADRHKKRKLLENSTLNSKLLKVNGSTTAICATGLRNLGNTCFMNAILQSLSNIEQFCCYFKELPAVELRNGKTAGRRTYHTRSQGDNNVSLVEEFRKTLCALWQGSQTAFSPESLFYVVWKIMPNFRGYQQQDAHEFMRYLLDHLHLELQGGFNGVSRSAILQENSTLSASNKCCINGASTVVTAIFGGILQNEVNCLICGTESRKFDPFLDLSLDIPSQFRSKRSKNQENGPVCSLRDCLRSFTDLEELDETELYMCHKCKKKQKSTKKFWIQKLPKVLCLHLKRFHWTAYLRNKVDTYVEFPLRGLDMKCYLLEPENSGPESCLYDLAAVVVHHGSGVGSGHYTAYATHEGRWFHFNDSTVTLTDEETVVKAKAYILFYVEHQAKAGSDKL
Chain of UniProt A3M2I8 (whole entry, looked up): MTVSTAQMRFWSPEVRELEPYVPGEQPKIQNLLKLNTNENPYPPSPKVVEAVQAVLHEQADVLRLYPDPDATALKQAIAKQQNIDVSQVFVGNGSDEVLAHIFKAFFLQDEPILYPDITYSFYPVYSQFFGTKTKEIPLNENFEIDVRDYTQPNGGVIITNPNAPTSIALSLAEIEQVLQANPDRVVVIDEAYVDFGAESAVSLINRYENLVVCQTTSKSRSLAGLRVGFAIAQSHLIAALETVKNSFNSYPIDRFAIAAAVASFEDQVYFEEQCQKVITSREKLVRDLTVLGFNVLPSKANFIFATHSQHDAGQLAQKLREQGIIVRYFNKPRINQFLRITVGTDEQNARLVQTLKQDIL
Chain of UniProt P35555 (whole entry, looked up): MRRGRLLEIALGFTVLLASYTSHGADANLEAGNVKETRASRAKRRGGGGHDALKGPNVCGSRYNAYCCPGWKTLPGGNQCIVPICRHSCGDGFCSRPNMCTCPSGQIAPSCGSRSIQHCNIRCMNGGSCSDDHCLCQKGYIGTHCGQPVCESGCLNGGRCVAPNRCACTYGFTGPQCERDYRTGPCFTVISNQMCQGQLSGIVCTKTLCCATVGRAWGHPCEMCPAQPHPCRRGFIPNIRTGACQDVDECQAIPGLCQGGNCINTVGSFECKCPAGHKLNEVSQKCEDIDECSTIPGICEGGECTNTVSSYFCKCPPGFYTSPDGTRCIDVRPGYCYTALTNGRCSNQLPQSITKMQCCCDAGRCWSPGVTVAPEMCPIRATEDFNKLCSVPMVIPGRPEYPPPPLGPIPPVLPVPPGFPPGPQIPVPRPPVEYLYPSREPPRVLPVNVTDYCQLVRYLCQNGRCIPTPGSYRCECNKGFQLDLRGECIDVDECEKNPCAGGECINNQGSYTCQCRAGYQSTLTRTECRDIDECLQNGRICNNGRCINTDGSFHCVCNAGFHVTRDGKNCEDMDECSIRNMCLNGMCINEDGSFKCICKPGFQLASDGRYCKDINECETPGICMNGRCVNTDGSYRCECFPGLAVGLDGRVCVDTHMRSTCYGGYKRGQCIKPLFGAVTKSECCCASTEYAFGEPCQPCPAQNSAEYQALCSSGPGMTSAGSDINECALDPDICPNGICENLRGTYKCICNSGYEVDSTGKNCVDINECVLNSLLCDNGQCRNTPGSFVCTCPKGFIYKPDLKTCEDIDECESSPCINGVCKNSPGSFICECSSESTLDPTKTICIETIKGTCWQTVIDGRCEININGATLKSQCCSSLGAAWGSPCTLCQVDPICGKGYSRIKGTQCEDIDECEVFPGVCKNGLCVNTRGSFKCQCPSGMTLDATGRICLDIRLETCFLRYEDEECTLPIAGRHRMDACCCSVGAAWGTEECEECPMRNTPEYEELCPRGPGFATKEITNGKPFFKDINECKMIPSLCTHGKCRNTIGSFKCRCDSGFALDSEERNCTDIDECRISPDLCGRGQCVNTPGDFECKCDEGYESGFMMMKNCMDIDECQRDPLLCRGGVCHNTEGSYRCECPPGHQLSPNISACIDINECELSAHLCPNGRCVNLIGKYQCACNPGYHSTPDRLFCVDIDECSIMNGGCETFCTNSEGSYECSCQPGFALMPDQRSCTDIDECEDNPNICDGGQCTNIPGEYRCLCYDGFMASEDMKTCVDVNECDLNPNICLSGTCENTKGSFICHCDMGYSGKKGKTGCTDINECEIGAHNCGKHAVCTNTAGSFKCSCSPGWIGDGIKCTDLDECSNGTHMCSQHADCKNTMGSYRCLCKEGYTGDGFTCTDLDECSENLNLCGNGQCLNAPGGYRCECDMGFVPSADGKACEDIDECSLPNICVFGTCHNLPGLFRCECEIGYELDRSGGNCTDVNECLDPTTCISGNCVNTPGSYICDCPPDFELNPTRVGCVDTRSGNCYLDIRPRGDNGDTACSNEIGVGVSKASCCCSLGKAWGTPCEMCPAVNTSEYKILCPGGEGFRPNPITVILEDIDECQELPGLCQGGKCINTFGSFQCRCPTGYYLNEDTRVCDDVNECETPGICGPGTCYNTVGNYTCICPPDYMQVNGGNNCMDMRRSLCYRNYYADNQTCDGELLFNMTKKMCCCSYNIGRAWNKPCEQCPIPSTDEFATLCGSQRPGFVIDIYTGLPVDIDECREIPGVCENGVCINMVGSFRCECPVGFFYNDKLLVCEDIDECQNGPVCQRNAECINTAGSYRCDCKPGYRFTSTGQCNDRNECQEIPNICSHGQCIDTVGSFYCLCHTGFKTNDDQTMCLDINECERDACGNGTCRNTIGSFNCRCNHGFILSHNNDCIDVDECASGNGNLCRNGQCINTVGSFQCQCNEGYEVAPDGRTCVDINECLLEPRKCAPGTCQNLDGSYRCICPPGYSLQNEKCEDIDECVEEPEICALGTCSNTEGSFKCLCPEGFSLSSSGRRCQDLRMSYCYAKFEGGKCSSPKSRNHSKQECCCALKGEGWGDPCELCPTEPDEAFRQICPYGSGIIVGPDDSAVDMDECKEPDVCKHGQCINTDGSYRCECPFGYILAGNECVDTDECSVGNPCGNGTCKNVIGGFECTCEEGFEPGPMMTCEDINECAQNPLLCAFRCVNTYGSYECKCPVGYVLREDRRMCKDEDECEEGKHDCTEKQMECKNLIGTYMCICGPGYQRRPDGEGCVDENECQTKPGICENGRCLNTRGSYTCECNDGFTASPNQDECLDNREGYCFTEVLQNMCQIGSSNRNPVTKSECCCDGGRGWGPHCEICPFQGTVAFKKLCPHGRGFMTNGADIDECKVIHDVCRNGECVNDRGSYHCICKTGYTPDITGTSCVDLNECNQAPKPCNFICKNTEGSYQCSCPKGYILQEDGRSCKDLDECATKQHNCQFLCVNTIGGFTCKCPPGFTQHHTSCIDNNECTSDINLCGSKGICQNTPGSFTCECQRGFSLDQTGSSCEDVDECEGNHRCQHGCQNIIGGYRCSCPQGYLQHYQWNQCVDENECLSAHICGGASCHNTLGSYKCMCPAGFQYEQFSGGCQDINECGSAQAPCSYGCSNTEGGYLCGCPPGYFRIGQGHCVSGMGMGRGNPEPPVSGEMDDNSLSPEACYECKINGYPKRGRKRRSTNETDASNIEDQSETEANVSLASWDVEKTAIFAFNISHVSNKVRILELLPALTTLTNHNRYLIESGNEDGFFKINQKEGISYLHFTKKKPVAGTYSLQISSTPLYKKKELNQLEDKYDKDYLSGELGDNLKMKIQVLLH
Chain of UniProt Q9UBZ9 (whole entry, looked up): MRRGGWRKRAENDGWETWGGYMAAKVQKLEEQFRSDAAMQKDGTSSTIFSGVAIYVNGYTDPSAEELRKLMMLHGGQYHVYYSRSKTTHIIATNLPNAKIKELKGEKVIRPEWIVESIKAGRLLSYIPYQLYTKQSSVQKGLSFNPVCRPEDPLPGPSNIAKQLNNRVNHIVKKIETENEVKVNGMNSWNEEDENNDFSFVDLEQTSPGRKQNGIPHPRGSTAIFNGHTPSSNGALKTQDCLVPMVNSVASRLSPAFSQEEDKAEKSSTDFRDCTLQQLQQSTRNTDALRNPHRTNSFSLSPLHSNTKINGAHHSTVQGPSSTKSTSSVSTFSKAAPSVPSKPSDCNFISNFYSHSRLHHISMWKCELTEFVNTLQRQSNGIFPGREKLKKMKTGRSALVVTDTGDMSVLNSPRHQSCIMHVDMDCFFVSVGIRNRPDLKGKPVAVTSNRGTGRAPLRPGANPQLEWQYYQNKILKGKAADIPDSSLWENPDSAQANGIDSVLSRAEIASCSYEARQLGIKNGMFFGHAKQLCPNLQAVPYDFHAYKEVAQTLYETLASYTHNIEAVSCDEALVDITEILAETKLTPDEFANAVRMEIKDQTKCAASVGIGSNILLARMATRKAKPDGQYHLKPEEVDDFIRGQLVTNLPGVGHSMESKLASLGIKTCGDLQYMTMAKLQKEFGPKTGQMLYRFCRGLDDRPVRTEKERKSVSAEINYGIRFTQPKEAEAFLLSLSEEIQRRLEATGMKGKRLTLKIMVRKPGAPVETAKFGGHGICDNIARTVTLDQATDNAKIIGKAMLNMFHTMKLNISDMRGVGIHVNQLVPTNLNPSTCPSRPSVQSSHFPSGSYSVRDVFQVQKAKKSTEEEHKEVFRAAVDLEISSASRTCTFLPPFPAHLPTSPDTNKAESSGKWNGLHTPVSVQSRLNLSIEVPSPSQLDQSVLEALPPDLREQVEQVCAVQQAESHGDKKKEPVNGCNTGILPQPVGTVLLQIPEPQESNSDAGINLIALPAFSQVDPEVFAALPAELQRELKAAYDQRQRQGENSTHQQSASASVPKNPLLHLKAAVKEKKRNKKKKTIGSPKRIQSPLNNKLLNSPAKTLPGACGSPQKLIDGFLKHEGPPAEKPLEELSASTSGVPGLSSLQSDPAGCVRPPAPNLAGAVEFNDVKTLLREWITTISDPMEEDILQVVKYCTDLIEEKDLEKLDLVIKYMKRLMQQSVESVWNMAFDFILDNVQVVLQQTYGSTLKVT

Compound	tested on	assay	system	conditions	endpoint	result
CC[C@H](C)[C@H](NC(=O)[C@H](Cc1c[nH]c2ccccc12)NC(=O)[C@H](CO)NC(=O)[C@H](Cc1ccccc1)NC(=O)[C@H](Cc1ccccc1)NC(=O)[C@H](CC(C)C)NC(=O)[C@H](C)NC(=O)CNC(=O)[C@@H]1CCCN1C(=O)[C@H](CCCNC(=N)N)NC(=O)[C@H](CC(C)C)NC(=O)[C@H](CO)NC(=O)[C@@H](N)CC(N)=O)C(=O)N[C@@H](CC(N)=O)C(=O)N[C@@H](CCCCN)C(=O)N[C@H](C(=O)N[C@@H](CO)C(=O)N1CCC[C@H]1C(=O)N[C@H](C(=O)N[C@H](C(=O)O)[C@@H](C)O)C(C)C)[C@@H](C)O	DNA repair protein REV1, C-terminal domain (Homo sapiens, UniProt Q9UBZ9)	inhibitor, fluorescence competition		together with: pol κ RIR	Kd	32 µM
C#Cc1c(F)ccc2cc(O)cc(-c3ncc4c(N5CC6CCC(C5)N6)nc(OC[C@@]56CCCN5C[C@H](F)C6)nc4c3F)c12	Ras-related protein Rap-1A, GDP-bound (Homo sapiens, UniProt P62834)	binding, surface plasmon resonance			Kd	> 30 µM
Cc1cc2nc3c(=O)[nH]c(=O)nc-3n(C[C@H](O)[C@H](O)[C@H](O)COP(=O)(O)OP(=O)(O)OC[C@H]3O[C@@H](n4cnc5c(N)ncnc54)[C@H](O)[C@@H]3O)c2cc1C	Fibrillin-1 (FBN1, Homo sapiens, UniProt P35555)	binding, MS pulldown competition	SW-620 cell lysate		Kd	18.1 µM
COCCN(C)C(=O)c1ccc(C2CCCCC2)cc1		liver microsome stability	rat liver microsomes	1 µM	hepatic clearance	51 mL/min/kg
O=c1c(O)c(-c2cc(O)c(O)c(O)c2)oc2cc(O)cc(O)c12	Histidinol-phosphate aminotransferase (hisC, Acinetobacter baumannii, UniProt A3M2I8)	surface plasmon resonance			Kd	2.6 µM
CC(C)=CCC/C(C)=C/C=C/C(C)=C/C=C/C(C)=C/C=C/C=C(C)/C=C/C=C(C)/C=C/C=C(\C)CCC=C(C)C	Beta-lactoglobulin (LGB, Bos taurus, UniProt P02754)	binding, fluorescence quenching	PBS	30 min, 298 K	Kd	0.0147 µM
O=C(O)CCC(=O)N1CCc2ccccc21	USP3 ZnF-UBD domain				Kd	> 1000 µM
C=C1[C@@H](O)C[C@H]2C(C)(C)CCC[C@]2(C)[C@H]1C[C@H](O)[C@H]1CC(=O)NC1=O	ribosome, Saccharomyces cerevisiae, 80S, E site	smFRET		pH 7.5, 23 °C, 5 mM MgCl2	Kd	85 ± 35 µM
COc1cc2oc(=O)cc(C)c2cc1CCC(=O)O	USP3 ZnF-UBD domain				Kd	354 µM
CCCN1CCN(c2ccc(-c3cncc(Cl)c3N3CCC4(CCNC4=O)CC3)cc2)CC1	MED14 human	SILAC competition	LS174T-L5 lysate		Kd	0.007 µM
O=C(O)CCc1nc2ccccc2c2nc(Cc3ccccc3)nn12	USP3 ZnF-UBD domain				Kd	238 µM
O=C(Cn1ccnc1)Nc1ccc(C2CCCCC2)cc1			cryopreserved human hepatocytes	1 µM	hepatic clearance	13 mL/min/kg
CN(C)c1ccc(C=Cc2nc3ccc(OCCF)cc3s2)cc1 (mixture of isomers)	Amyloid-beta precursor protein, Aβ42 aggregates (APP, Homo sapiens, UniProt P05067)	binding, fluorescence saturation binding	preformed amyloid-beta aggregates in PBS		Kd	0.059 ± 0.012 µM
[H]/N=C(/N)N[C@H]1[C@H](O)[C@@H](O)[C@H](O[C@@H]2O[C@@H](C)[C@](O)(C=O)[C@H]2O[C@@H]2O[C@@H](CO)[C@H](O)[C@@H](O)[C@@H]2NC)[C@@H](N/C(N)=N\[H])[C@@H]1O	de novo protein S23	binding, NMR			Kd	650 ± 420 µM
Cc1ncsc1-c1ccc(CNC(=O)[C@@H]2C[C@@H](O)CN2C(=O)[C@@H](NC(=O)C2(F)CC2)C(C)(C)C)c(OCCOc2ccc(CN3CCN(c4cc(-c5ccccc5O)nnc4N)CC3)cc2)c1	SWI/SNF-related matrix-associated actin-dependent regulator of chromatin subfamily A member 4, bromodomain (SMARCA4, Homo sapiens, UniProt P51532)	binding, SPR		6 °C	Kd	2.6 µM
OC1OC[C@H](O)[C@H](O)[C@H]1O (mixture of isomers)	uncharacterized protein (Pelagibacter ubique, UniProt Q4FMK2)	isothermal titration calorimetry	Candidatus Pelagibacter ubique		Kd	1.24 µM and 1.37 µM
CCCCCCCC(=O)OC[C@H](COP(=O)(O)O[C@@H]1[C@H](O)[C@H](O)[C@@H](OP(=O)(O)O)[C@H](OP(=O)(O)O)[C@H]1O)OC(=O)CCCCCCC	Kv7.2/Kv7.3(EEE) mutant channel	channel opening, activator, model fit of open probability		model 4, K2, K2 and K3 constrained	Kd	96 µM
NC[C@@H]1O[C@H](O[C@H]2[C@@H](O)[C@H](O[C@@H]3[C@@H](O)[C@H](N)C[C@H](N)[C@H]3O[C@H]3O[C@H](CO)[C@@H](O)[C@H](O)[C@H]3N)O[C@@H]2CO)[C@H](N)[C@@H](O)[C@@H]1O	de novo protein S23	NMR			Kd	15 to 20 µM
O=C(O)CCc1cn2cccnc2n1	USP3 ZnF-UBD domain				Kd	> 1000 µM
CCOc1c([C@H](C)n2nc(C)c3c(N)ncnc32)cc(Cl)c(F)c1[C@@H]1CNC(=O)C1			patients, monotherapy	oral, 15 mg once daily, cycle 1 day 1	AUC(0-last)	3.73 ± 0.678 µM·h
O=C(O)CCc1cnn(-c2ccccc2)c1	USP3 ZnF-UBD domain				Kd	> 1000 µM
CCCCCCCCCCCC1=C(O)C(=O)C=C(O)C1=O	de novo protein S23	binding, NMR			Kd	1000 ± 520 µM
O=C(O)CCn1nnc(-c2ccccc2)n1	USP3 ZnF-UBD domain				Kd	146 µM
Cn1cncc1C1=CN(c2ncnc3[nH]cnc23)CCS1(=O)=O	PRKACA (Homo sapiens, UniProt P17612)	binding			Kd	431 ± 274 µM
O=C(O)CNC(=O)c1ccc(S(=O)(=O)N2CCC(n3c(=O)oc4ccccc43)CC2)cc1	USP3 ZnF-UBD domain				Kd	216 µM
Nc1nc2c(ncn2[C@@H]2O[C@H](COP(=O)(O)OP(=O)(O)O)[C@@H](OP(=O)(O)OP(=O)(O)O)[C@H]2O)c(=O)[nH]1	Hypoxanthine phosphoribosyltransferase (hpt, Escherichia coli, UniProt P0A9M2)	binding, ITC single-site fit			Kd	32 ± 4 µM
CSc1nc(C)c(CCC(=O)O)c(=O)[nH]1	USP3 ZnF-UBD domain				Kd	51.8 µM
CC[C@H](C)[C@H](NC(=O)[C@H](CO)NC(=O)[C@H](CCCNC(=N)N)NC(=O)[C@H](CC(=O)O)NC(=O)[C@H](CCSC)NC(=O)[C@H](CO)NC(=O)[C@H](CC(=O)O)NC(=O)CNC(=O)[C@@H](NC(=O)[C@H](CCC(N)=O)NC(=O)[C@H](C)NC(=O)[C@H](CC(C)C)NC(=O)[C@H](Cc1c[nH]cn1)NC(=O)[C@H](CCCNC(=N)N)NC(=O)[C@H](C)NC(=O)[C@@H](NC(=O)[C@H](CC(N)=O)NC(=O)[C@H](CCCNC(=N)N)NC(=O)[C@@H](NC(=O)[C@@H](NC(=O)[C@H](CC(=O)O)NC(=O)[C@H](CCC(=O)O)NC(C)=O)[C@@H](C)CC)[C@@H](C)CC)[C@@H](C)CC)C(C)C)C(N)=O	Bcl-2 homologous antagonist/killer, part: residues 15–186 (BAK1, Homo sapiens, UniProt Q16611)	sedimentation equilibrium AUC			Kd	10.1 µM

For quick reference, copied from above:
Compound	tested on	assay	system	conditions	endpoint	result
CCCCCCCCCCCC1=C(O)C(=O)C=C(O)C1=O	de novo protein S23	binding, NMR			Kd	1000 ± 520 µM
O=C(O)CNC(=O)c1ccc(S(=O)(=O)N2CCC(n3c(=O)oc4ccccc43)CC2)cc1	USP3 ZnF-UBD domain				Kd	216 µM
O=C(O)CCc1cnn(-c2ccccc2)c1	USP3 ZnF-UBD domain				Kd	> 1000 µM
C=C1[C@@H](O)C[C@H]2C(C)(C)CCC[C@]2(C)[C@H]1C[C@H](O)[C@H]1CC(=O)NC1=O	ribosome, Saccharomyces cerevisiae, 80S, E site	smFRET		pH 7.5, 23 °C, 5 mM MgCl2	Kd	85 ± 35 µM
